Measured values collected from several papers.
Every numbered part comes from another study and shows a few of its results, in no order.
UniProt Q86Z02, sequence (whole entry, looked up): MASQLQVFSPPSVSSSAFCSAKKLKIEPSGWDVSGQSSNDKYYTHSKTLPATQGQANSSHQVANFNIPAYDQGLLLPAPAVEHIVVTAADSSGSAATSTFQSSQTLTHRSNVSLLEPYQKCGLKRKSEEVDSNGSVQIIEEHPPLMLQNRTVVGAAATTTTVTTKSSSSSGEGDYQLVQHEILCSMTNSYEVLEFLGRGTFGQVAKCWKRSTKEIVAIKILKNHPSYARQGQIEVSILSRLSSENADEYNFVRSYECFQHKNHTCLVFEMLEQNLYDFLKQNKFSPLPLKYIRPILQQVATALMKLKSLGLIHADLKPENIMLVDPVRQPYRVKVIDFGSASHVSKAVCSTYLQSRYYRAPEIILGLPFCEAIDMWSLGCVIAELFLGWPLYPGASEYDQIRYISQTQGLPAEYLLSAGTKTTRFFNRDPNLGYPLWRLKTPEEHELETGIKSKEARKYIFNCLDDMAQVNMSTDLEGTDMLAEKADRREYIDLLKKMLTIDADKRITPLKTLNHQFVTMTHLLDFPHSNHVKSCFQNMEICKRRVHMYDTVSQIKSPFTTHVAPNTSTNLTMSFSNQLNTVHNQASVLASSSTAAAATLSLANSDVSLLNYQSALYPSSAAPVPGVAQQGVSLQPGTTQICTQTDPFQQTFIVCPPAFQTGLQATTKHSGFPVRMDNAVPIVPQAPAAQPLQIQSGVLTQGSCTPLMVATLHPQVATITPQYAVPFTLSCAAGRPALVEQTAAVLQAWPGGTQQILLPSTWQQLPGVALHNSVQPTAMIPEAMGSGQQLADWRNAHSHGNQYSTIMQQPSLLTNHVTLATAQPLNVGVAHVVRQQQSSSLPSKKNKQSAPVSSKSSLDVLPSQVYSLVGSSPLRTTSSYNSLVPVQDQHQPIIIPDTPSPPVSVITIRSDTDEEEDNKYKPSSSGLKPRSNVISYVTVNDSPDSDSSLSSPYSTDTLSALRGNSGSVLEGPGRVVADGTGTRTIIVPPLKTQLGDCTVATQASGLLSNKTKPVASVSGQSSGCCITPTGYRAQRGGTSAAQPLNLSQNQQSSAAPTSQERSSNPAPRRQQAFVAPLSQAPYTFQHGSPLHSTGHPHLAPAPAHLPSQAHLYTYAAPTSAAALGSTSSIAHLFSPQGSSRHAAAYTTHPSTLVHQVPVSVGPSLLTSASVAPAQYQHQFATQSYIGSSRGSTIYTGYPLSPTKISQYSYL
UniProt O60331, sequence (whole entry, looked up): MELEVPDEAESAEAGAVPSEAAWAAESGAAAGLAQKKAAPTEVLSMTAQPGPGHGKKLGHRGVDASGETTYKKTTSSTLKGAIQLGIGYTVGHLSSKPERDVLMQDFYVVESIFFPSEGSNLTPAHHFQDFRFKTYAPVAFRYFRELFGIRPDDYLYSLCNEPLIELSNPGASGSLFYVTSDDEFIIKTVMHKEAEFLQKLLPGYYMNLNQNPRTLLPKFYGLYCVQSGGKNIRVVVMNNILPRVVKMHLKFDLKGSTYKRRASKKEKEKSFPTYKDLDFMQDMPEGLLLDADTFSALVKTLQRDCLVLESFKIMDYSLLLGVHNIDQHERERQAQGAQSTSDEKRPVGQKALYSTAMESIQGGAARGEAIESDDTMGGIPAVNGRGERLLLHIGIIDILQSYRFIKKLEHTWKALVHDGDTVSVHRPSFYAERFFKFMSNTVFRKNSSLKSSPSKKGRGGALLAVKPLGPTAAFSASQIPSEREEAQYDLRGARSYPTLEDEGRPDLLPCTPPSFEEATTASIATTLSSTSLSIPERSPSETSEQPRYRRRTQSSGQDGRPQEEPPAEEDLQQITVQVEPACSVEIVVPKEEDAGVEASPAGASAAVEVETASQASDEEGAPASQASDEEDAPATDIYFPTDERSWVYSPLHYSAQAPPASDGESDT
UniProt Q9BQI3, sequence (whole entry, looked up): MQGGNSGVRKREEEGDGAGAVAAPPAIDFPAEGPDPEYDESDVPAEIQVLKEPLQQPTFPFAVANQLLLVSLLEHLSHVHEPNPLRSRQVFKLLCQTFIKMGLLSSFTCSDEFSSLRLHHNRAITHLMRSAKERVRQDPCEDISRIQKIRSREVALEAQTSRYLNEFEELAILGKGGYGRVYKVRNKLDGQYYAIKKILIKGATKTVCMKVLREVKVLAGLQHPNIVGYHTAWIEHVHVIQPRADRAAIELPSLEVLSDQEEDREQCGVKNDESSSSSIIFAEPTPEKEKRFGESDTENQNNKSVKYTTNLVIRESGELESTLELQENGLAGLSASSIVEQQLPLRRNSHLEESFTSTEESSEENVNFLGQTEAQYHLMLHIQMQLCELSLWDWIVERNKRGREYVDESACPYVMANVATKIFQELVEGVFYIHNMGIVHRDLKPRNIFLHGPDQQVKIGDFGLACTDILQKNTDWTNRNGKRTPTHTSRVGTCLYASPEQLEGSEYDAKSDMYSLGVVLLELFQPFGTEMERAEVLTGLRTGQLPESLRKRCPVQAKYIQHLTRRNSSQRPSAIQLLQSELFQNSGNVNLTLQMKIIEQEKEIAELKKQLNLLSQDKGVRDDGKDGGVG
UniProt Q9NQU5, sequence (whole entry, looked up): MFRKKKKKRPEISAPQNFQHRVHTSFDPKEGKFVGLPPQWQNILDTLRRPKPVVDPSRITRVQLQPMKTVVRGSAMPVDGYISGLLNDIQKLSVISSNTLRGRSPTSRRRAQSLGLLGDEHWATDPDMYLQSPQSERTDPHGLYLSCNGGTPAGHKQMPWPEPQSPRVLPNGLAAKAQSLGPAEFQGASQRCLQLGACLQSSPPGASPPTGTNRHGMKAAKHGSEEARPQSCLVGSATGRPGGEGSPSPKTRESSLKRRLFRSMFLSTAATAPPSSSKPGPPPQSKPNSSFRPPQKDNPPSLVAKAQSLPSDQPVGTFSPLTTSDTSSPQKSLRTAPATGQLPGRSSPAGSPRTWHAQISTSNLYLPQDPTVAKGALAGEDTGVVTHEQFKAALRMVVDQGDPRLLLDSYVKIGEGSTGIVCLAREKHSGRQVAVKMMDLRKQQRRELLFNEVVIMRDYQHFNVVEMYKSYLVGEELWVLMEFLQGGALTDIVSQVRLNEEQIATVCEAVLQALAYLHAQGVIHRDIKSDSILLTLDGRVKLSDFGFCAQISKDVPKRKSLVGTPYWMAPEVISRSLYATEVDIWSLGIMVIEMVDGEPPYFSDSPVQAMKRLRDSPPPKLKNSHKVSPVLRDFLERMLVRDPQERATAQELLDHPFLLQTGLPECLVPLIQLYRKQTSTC
UniProt Q9UK32, sequence (whole entry, looked up): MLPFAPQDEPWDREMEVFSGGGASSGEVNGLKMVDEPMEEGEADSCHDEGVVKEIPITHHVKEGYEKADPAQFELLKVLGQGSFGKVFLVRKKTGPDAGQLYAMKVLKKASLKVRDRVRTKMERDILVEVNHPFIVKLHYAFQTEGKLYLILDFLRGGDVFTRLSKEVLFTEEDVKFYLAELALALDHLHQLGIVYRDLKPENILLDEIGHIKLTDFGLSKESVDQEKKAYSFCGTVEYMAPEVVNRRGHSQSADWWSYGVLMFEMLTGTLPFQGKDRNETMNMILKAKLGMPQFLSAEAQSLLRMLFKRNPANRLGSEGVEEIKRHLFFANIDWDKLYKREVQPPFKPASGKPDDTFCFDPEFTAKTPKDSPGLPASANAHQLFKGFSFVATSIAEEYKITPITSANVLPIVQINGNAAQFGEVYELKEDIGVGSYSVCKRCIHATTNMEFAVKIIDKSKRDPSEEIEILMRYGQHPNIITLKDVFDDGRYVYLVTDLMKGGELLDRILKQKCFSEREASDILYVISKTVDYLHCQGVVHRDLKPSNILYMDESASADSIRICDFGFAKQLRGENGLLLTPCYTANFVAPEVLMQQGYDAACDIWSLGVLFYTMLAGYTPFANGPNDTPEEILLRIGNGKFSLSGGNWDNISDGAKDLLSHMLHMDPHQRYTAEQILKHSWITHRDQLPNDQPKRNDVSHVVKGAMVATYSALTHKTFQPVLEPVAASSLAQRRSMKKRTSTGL
UniProt P28482, sequence (whole entry, looked up): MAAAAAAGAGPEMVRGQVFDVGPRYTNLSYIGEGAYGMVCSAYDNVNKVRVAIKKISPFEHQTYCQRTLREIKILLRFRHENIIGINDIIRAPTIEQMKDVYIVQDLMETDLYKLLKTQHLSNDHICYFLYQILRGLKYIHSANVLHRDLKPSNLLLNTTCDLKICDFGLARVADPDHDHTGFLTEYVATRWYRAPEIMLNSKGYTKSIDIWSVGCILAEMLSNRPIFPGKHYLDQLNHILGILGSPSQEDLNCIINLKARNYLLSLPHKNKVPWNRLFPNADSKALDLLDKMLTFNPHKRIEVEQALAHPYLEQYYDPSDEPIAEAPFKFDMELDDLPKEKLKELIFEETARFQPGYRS

Series 1
Target: G protein-coupled receptor kinase 4 (GRK4, Homo sapiens, UniProt P32298)
UniProt P32298, sequence (whole entry, looked up): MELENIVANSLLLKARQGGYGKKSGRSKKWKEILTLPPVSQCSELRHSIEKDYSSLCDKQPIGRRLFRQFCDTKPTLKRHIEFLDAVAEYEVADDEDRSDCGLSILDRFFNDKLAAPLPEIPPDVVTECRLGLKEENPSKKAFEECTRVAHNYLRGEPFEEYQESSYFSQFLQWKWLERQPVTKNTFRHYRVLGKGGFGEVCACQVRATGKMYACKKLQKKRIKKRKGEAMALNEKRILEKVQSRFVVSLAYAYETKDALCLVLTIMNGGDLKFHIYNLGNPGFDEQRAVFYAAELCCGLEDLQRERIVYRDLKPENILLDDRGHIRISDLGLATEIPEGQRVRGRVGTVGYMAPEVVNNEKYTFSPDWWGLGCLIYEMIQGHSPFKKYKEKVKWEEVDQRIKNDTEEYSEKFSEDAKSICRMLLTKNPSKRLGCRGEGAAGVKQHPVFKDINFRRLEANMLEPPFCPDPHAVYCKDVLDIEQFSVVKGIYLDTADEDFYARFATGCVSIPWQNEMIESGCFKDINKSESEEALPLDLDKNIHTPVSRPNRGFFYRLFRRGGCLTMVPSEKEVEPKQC
Observed: enzyme activity
Mode: inhibitor
Concentration: 0.5 µM
Relative to: control
Measurement: remaining activity
Fc1ccc(-c2nc3n(c2-c2ccncc2)CCS3)cc1: 95.7%
N#CC(=C(N)Sc1ccc(N)cc1)c1ccccc1C(F)(F)F: 98.4%
O=C1Cc2c([nH]c3ccc([N+](=O)[O-])cc23)-c2ccccc2N1: 99.3%
Oc1ccc(Nc2nc(-c3ccc(Cl)cc3)cs2)cc1: 90.5%
CSc1nc(-c2ccnc(N[C@@H](C)c3ccccc3)c2)c(-c2ccc(F)cc2)[nH]1 (racemic): 90.6%
Cc1ccc(NC2=CC(=O)c3sc(C)nc3C2=O)cc1: 93.1%
CCCC(=O)Oc1ccc2[nH]c(C(=O)c3cc4ccccc4[nH]3)cc2c1: 93.7%
NC(=O)c1ccc(N(C(N)=O)c2c(F)cccc2F)nc1-c1ccc(F)cc1F: 90.7%
COc1cc(Nc2c(C#N)cnc3cc(OCCCN4CCN(C)CC4)c(OC)cc23)c(Cl)cc1Cl: 92.4%
Cc1cncc2cccc(S(=O)(=O)N3CCCN(C(=O)CN)C[C@@H]3C)c12: 94%
CC#CC(=O)Nc1cc2c(Nc3ccc(F)c(Cl)c3)ncnc2cn1: 104%

Series 2
SMILES: O=C(Nc1ccccc1)Nc1cccc(Oc2ccc3nccn3n2)c1
Technique: competitive binding panel
Concentration: 1 µM
Relative to: vehicle
Measurement: remaining binding
Myosin-IIIa (MYO3A, Homo sapiens, UniProt Q8NEV4): 100%
HIPK1 (Homo sapiens, UniProt Q86Z02): 100%
PAK6 (Homo sapiens, UniProt Q9NQU5): 100%
PRPF4B (Homo sapiens, UniProt Q13523); refers to: PRP4: 74%
FGFR1 (Homo sapiens, UniProt P11362): 87%
TRPM6 (Homo sapiens, UniProt Q9BX84): 100%
MUSK (Homo sapiens, UniProt O15146): 100%
MAP2K3 (Homo sapiens, UniProt P46734); refers to: MEK3: 100%
SRMS (Homo sapiens, UniProt Q9H3Y6): 100%
EPHB1 (Homo sapiens, UniProt P54762): 100%

Series 3
Compound: NS(=O)(=O)c1cc(NC(=O)Cc2ccccc2)ccc1Oc1cccc(Cl)c1
Technique: competition with immobilised ligand
Concentration: 1 µM
Measurement: remaining binding
CDKL2 (Homo sapiens, UniProt Q92772); cell-free assay: 99%
Tyrosine-protein kinase ABL1, non-phosphorylated (ABL1, Homo sapiens, UniProt P00519, F317I); binding: 51%
EIF2AK1 (Homo sapiens, UniProt Q9BQI3); cell-free assay: 83%
PIP5K1C (Homo sapiens, UniProt O60331); cell-free assay: 100%
Ribosomal protein S6 kinase alpha-6, N-terminal kinase domain (RPS6KA6, Homo sapiens, UniProt Q9UK32); cell-free assay: 84%
MAPK1 (Homo sapiens, UniProt P28482); cell-free assay: 71%
MAP3K20 (Homo sapiens, UniProt Q9NYL2); cell-free assay: 100%

Series 4
Cell line: A-375
Concentration: 100 µM
Time: 36 h
Measurement: viability
CCOC(=O)CCC(=O)O[C@H]1[C@H](O[C@@H]2[C@@H](C)[C@H](O[C@H]3C[C@@](C)(OC)[C@@H](O)[C@H](C)O3)[C@@H](C)C(=O)O[C@H](CC)[C@@](C)(O)[C@H](O)[C@@H](C)C(=O)[C@H](C)C[C@@]2(C)O)O[C@H](C)C[C@@H]1N(C)C: 78.3%
CCCCCCCCCCCCCCCCOP(=O)([O-])OCC[N+](C)(C)C: 20.8%
COc1ccc(-n2nc(C(N)=O)c3c2C(=O)N(c2ccc(N4CCCCC4=O)cc2)CC3)cc1: 109%
CCN(CC)CCNC(=O)c1cc(Cl)c(N)cc1OC: 91.8%
C=CC(N)CCC(=O)O (centres unmarked): 101%
CC(CCc1ccc(O)cc1)NCC(O)c1ccc(O)cc1 (centres unmarked): 115%
COc1cc(NS(=O)(=O)c2ccc(N)cc2)ncn1: 118%

A few entries again (series 4):
CCCCCCCCCCCCCCCCOP(=O)([O-])OCC[N+](C)(C)C: 20.8%
COc1ccc(-n2nc(C(N)=O)c3c2C(=O)N(c2ccc(N4CCCCC4=O)cc2)CC3)cc1: 109%
CCN(CC)CCNC(=O)c1cc(Cl)c(N)cc1OC: 91.8%
C=CC(N)CCC(=O)O (centres unmarked): 101%
CC(CCc1ccc(O)cc1)NCC(O)c1ccc(O)cc1 (centres unmarked): 115%
